# Assay results from different studies.
# Each line is one published result; not all experiments were run side by side. “And” joins repeats or separate records; there may be more than shown. ± gives the spread as reported.
# UniProt Q9DBL9, sequence (whole entry, looked up): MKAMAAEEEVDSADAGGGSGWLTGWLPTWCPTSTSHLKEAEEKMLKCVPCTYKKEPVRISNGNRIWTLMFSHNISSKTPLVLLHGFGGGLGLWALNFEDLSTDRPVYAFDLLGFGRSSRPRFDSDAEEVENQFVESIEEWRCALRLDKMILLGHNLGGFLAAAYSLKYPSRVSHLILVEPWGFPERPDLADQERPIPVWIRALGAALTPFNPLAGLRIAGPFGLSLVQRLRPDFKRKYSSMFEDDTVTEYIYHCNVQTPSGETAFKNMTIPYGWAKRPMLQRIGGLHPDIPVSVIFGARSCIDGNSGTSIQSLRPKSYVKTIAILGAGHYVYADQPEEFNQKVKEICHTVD
# UniProt Q9Y2J8, sequence (whole entry, looked up): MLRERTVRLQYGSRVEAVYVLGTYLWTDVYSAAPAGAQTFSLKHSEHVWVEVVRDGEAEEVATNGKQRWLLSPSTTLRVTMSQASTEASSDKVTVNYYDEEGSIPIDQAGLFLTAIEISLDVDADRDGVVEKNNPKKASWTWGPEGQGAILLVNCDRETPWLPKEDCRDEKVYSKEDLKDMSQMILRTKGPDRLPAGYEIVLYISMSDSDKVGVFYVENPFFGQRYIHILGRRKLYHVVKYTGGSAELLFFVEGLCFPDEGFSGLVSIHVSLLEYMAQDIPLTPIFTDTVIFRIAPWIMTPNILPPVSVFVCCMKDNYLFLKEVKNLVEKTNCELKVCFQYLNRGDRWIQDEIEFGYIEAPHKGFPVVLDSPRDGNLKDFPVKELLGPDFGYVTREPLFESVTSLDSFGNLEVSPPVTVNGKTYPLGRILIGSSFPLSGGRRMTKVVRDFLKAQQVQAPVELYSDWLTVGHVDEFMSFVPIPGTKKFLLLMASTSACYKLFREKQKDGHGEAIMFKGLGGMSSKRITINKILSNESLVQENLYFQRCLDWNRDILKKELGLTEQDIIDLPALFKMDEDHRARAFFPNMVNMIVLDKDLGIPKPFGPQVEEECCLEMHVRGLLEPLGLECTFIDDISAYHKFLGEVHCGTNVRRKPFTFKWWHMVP
# UniProt Q14432, sequence (whole entry, looked up): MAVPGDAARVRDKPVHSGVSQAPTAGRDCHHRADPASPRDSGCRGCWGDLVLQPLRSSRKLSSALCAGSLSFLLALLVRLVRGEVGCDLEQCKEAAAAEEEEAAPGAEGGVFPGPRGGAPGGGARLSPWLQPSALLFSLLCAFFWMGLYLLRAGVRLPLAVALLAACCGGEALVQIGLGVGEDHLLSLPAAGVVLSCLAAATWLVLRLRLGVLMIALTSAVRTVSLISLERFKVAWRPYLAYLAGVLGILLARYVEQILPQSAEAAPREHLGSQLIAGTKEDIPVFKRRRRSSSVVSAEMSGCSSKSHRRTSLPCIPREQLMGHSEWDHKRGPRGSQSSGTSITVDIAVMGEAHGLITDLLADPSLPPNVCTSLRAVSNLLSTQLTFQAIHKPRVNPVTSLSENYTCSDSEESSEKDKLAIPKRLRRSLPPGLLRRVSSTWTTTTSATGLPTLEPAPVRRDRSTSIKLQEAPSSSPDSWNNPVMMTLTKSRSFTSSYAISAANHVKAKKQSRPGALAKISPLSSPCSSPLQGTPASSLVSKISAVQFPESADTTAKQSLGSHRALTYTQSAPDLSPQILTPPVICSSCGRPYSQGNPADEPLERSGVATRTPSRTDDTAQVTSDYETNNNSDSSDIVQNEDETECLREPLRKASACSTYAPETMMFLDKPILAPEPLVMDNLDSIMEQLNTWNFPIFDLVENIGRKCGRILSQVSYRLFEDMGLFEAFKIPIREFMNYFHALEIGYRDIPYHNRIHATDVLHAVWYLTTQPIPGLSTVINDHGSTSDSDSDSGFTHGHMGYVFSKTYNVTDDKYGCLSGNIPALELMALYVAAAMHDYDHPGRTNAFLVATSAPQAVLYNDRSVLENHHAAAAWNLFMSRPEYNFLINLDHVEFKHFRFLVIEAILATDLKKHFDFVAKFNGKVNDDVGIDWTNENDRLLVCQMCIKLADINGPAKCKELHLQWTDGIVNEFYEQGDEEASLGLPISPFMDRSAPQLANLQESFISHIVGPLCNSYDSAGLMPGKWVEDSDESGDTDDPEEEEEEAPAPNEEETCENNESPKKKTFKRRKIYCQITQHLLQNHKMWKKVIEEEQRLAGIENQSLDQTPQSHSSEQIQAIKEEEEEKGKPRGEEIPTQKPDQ
# UniProt Q704Y3, sequence (whole entry, unmodified, looked up): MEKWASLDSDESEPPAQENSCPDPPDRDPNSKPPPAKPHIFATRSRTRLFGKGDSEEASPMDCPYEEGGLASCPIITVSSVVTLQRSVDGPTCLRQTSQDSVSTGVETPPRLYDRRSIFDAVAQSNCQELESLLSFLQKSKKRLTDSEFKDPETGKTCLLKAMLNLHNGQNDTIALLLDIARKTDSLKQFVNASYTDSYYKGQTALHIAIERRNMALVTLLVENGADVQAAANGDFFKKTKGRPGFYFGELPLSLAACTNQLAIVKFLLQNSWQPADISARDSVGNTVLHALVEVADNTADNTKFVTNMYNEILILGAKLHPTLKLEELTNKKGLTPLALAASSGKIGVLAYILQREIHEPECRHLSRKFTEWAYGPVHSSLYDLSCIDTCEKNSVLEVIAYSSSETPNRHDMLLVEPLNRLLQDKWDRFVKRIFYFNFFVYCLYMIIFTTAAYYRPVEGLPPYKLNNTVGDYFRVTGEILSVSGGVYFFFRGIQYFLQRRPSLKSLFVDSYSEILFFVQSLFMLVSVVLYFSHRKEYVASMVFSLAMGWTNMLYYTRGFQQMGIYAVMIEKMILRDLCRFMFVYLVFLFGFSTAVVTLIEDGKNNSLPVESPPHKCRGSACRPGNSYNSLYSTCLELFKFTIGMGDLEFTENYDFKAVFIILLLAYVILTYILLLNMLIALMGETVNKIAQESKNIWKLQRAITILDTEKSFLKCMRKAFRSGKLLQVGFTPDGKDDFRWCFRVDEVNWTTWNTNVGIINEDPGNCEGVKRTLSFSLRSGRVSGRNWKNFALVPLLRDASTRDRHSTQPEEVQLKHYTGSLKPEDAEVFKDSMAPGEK
# UniProt O43318, sequence (whole entry, looked up): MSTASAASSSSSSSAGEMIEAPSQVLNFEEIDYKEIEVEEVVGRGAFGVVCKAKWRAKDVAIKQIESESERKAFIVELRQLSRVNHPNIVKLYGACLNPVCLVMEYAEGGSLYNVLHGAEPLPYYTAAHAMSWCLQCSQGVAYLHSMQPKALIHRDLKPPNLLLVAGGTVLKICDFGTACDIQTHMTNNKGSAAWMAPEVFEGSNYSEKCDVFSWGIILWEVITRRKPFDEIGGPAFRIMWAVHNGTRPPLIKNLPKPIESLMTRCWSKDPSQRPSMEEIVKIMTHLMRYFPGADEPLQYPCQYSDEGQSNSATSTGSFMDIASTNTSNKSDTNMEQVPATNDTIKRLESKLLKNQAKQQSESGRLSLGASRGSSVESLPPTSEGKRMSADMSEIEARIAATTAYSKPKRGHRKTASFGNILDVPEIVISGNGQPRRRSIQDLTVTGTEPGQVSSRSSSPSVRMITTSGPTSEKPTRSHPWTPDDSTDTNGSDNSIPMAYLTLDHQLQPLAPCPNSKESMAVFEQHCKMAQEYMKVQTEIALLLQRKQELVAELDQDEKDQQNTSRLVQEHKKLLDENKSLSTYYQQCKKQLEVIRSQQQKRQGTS
# UniProt O60331, sequence (whole entry, looked up): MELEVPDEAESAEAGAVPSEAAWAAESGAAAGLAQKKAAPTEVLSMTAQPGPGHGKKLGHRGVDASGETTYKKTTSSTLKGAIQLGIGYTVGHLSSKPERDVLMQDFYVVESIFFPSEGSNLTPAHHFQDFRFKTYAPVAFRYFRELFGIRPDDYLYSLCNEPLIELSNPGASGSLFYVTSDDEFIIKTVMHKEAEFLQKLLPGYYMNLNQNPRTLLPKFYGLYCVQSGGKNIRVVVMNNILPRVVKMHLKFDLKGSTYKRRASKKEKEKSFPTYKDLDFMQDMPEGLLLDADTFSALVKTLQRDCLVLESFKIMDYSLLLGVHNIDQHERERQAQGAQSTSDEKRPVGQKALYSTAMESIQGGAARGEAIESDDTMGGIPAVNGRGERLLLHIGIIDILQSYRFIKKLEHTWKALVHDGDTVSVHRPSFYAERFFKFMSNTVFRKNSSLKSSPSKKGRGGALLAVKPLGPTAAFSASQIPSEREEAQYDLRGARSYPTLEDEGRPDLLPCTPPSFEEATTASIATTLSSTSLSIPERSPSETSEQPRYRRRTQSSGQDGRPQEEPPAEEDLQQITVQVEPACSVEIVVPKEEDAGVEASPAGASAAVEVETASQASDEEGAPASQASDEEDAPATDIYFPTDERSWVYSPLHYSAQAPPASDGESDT
# UniProt O43570, sequence (whole entry, looked up): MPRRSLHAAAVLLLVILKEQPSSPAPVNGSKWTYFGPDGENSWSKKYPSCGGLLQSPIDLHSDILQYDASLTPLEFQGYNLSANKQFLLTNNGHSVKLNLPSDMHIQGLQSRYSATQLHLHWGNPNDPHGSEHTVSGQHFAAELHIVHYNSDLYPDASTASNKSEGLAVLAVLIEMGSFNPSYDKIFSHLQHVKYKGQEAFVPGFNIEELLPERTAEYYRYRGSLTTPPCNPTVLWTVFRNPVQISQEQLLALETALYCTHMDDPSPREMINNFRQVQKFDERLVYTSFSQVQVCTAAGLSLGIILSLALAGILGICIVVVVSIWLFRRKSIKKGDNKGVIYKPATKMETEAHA
# UniProt Q8K4F5, sequence (whole entry, looked up): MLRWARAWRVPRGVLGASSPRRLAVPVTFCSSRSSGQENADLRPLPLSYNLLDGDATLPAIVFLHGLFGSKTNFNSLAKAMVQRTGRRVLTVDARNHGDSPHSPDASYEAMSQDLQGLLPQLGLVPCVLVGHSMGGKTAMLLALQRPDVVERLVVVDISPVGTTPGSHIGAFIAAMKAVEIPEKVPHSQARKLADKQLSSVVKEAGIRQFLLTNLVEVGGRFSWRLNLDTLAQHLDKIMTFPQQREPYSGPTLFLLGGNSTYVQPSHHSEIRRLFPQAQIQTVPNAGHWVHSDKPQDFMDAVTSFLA
SMILES,tested on,test,test system,conditions,how to read,quantity,result
COc1ccccc1-c1n[nH]c2nc(NC3CCN(C(=O)Cc4ccc(F)cc4F)CC3)ncc12,,"bead binding, competition bead pull-down, refers to: LINJ.29.0860",Leishmania donovani axenic amastigote extract,10 µM,relative to: vehicle,relative abundance,0.97
CC[C@H](C)[C@@H]([C@@H](CC(=O)N1CCC[C@H]1[C@H](OC)[C@@H](C)C(=O)N[C@H](C)[C@@H](O)c1ccccc1)OC)N(C)C(=O)[C@@H](NC(=O)[C@H](C(C)C)N(C)C(=O)OCc1ccc(NC(=O)[C@H](CCCNC(N)=O)NC(=O)[C@@H](NC(=O)CCCCCN2C(=O)CC(SC[C@H](NC(=O)[C@H](CC(=O)O)NC(=O)[C@H](Cc3ccc(O)cc3)NC(=O)[C@H](Cc3c[nH]c4ccccc34)NC(=O)[C@@H](N)CCCNC(=N)N)C(=O)O)C2=O)C(C)C)cc1)C(C)C (stereo partly shown),,,"C57BL/6 mouse, healthy, heart","intraperitoneal, 2.5 mg/kg, 1 h",,concentration,not detected
CCOC(=O)[C@@H]1Cc2c(cc([N+](=O)[O-])cc2[N+](=O)[O-])[C@H](O)[C@]12C(=O)Nc1ccc(Br)cc12,"ULK1 (Homo sapiens, UniProt O75385)",KINOMEscan,,100 nM,relative to: DMSO control,remaining binding,59%
N[C@H](C(=O)N1CCCC1)C1CCN(c2nccc3c(-c4ncc(Cl)cc4Cl)cccc23)CC1,"PADI2 (Homo sapiens, UniProt Q9Y2J8)",enzyme activity,,"0.0983 µM, with: Ca2+ 0.25 mM",,kcat,0.353 s⁻¹ and 0.35 s⁻¹
O=C1NC2(CC2)COc2ncc(F)cc2[C@H]2COCCN2c2ccn3ncc1c3n2,,,"Sprague-Dawley rat, female, uterus","oral, 5 mg/kg/day, 4 weeks, end of treatment",,organ-to-brain weight ratio,24.6 ± 5.52%
Cc1c(Cl)c(=O)oc2cc(OCCCCCC[Se]C#N)ccc12,"CA12 (Homo sapiens, UniProt O43570)",stopped-flow CO2 hydration,,,relative to: Ki CA I over Ki CA XII,selectivity ratio,> 1110
OC1Cc2ccccc2CC1N1CCC2(C=Cc3ccc(Br)cc32)CC1 (racemic),"Vesicular acetylcholine transporter (Rattus norvegicus, UniProt Q62666)",,,,relative to: Ki sigma1 over Ki VAChT,selectivity ratio,0.32
CC[C@H](C)[C@H](NC(=O)[C@H](CO)NC(=O)[C@H](Cc1ccc(O)cc1)NC(=O)[C@H](Cc1ccc(O)cc1)NC(=O)[C@H](CC(N)=O)NC(=O)CNC(=O)[C@H](CO)NC(=O)[C@H](Cc1ccc(O)cc1)NC(=O)[C@H](CO)NC(=O)[C@H](CO)NC(=O)[C@H](CC(N)=O)NC(=O)COCCOCCNC(=O)CN1CCN(CC(=O)O)CCN(CC(=O)O)CCN(CC(=O)O)CC1)C(=O)N[C@@H](CC(C)C)C(N)=O [copper-64 labelled],,dynamic PET,"tamoxifen-induced PDAC mouse model, pancreas","12.5 min, CLDN4-expressing tumours",,maximum pancreas uptake,17.6 %IA/cc
O=C1NC(=O)c2c1c1cc(F)c[n+]3c1c1c2c2cc(O)ccc2[n]1[Ru-4]312([N]=C=S)[S+]3CC[S+]1CC[S+]2CC3 (stereo not shown),"MAP3K7 (Homo sapiens, UniProt O43318)",enzyme activity,,"100 nM, human enzyme, with: 10 µM ATP",relative to: untreated,remaining activity,104%
C#CCCCCOc1ccc2c(c1)CCCN2C(=O)CCl,"CAAX prenyl protease 1 homolog (Homo sapiens, UniProt O75844)","mass spectrometry profiling, refers to: ZMPSTE24",H460 cell lysate,"100 µM over 10 µM, UniProt O75844",relative to: high over low concentration,reactivity ratio,1.47
CN(C)[C@H]1C[C@@]23CC[C@@]4(O2)C(=CC[C@]2(C)[C@@H](c5ccc6ccncc6c5)CC[C@H]24)C=C3[C@@H](O)[C@@H]1O,"MAP3K4 (Homo sapiens, UniProt Q9Y6R4)","ATP probe labelling, inhibitor, KiNativ profiling",,0.1 µM,,inhibition,16.7%
C[C@]1(COC(=O)Cc2ccc(O)c(O)c2)[C@H](C(=O)O)N2C(=O)/C(=C/c3ccccn3)[C@H]2S1(=O)=O,"Beta-lactamase (blaOXA-33, Acinetobacter baumannii, UniProt Q8RLA6)",,,,,Ki (inactivation),0.24 ± 0.05 µM
CC(C)(C)C(=O)OCOP(=O)(OCOC(=O)C(C)(C)C)C1CCCN(O)C1=O (stereo not shown),OVCAR-8,,,,,GI50,0.305 µM
CCCCC/C=C\C/C=C\C/C=C\C/C=C\CCCC(=O)NCCc1ccc(O)c(O)c1,"Trpv1 (Mus musculus, UniProt Q704Y3, D577E)","ion current, agonist, whole-cell patch clamp",,D577E,relative to: 3 mM 2-APB,maximal open probability,0.41 ± 0.09
CCc1nnc(-c2c(OC)cc(-c3cnc4cc(-c5cnn(C)c5)ccn34)cc2OC)o1,"PDE3A (Homo sapiens, UniProt Q14432)",radioligand binding,,"10 µM, SafetyScreen44 replicate 2",lower = stronger displacement,remaining binding,104%
CC(C)CC(O)(CC(C)C)c1cn(C(=O)N2CCCC2)nn1,"Abhd5 (Mus musculus, UniProt Q9DBL9)","probe labelling, inhibitor, competitive ABPP-SILAC",mouse T cells,"concentration not given, 4 h, single peptide","relative to: treated over DMSO cells, lower = stronger inhibition",SILAC activity ratio,1.27 and 1.17
CC(C)[C@H]1NC(=O)C[C@H]2/C=C/CCSSC[C@@H](NC1=O)C(=O)N[C@H](Cc1cccc3ccccc13)C(=O)NCC(=O)O2,"MAPK1 (Homo sapiens, UniProt P28482)","enzyme activity, inhibitor",,10 µM,,inhibition,-4.2%
CC[C@H](C)[C@H](NC(=O)[C@H](CCCNC(=N)N)NC(=O)[C@H](CCCNC(=N)N)NC(=O)[C@H](CC(C)C)NC(=O)[C@H](Cc1ccccc1)NC(=O)CNC(=O)CNC(=O)[C@@H](N)Cc1ccc(O)cc1)C(=O)N[C@@H](CCCNC(=N)N)C(=O)N1CCC[C@H]1C(=O)N[C@@H](CCCCN)C(=O)N[C@@H](CC(C)C)C(=O)N[C@@H](CCCCN)C(=O)O,"GPR139 (Homo sapiens, UniProt Q6DWJ6)","GαoB activation, agonist, BRET",HEK293T/17,40 µM,,Emax,50.5%
Cc1cc(C(=O)Nc2nc3cccc(C)c3n2[C@H]2CCCCN(C(=O)/C=C/CN(C)C)C2)ccn1,Trypanosoma brucei,"propidium iodide flow cytometry, refers to: G1 phase",bloodstream CLK1 over-expression induced,concentration not given,,cell cycle distribution,46.5% and 41% and 45.7%
COc1ccccc1-c1n[nH]c2nc(N[C@H]3CC[C@H](NS(=O)(=O)CC(C)C)CC3)ncc12,,"bead binding, competition bead pull-down, refers to: LMJF.36.3530",Leishmania donovani extract,10 µM,relative to: vehicle,relative abundance,1.06
CS(C)(=O)=Nc1ccc(-c2ccc(-c3nc4cc(O[C@@H]5CO[C@H]6[C@@H]5OC[C@H]6O)[nH]c4cc3F)cc2)cc1,"PIP5K1C (Homo sapiens, UniProt O60331)","enzyme activity, inhibitor",,10 µM,,inhibition,-5%
COCC1CCCCN1C(=O)n1cc(C(O)(c2ccccc2)c2ccccc2)nn1 (stereo not shown),"sn-1-specific diacylglycerol lipase ABHD11 (Mus musculus, UniProt Q8K4F5)","probe labelling, inhibitor, competitive ABPP-SILAC",mouse T cells,"concentration not given, 4 h, protein level","relative to: treated over DMSO cells, lower = stronger inhibition",SILAC activity ratio,0.14
CCN1CCN(C2CCN(C(=O)COc3ccc(-c4ccc(OC)cc4)cc3)CC2)CC1,"uncharacterized protein (Apis mellifera, UniProt A0A7M6W5G5)","enzyme activity, inhibitor, Ellman",,"up to 1000 µM, pH 7.4, 30 °C, with: 1 mM acetylthiocholine",,IC50,inactive
C[C@H](NCc1ccc(-c2ccc(C(F)(F)F)cc2)cc1)C(N)=O,"DCLK1 (Homo sapiens, UniProt O15075)","cell-free assay, competition with immobilised ligand",,1 µM,,inhibition,33%
N=C(N)NCCC[C@@H]1NC(=O)[C@H](CCCCNC(=O)CCC(NC(=S)Nc2ccc(CC3CN(CC(=O)O)CCN(CC(=O)O)CCN(CC(=O)O)CCN3CC(=O)O)cc2)C(=O)NCCCC[C@@H]2NC(=O)[C@@H](Cc3ccc(O)cc3)NC(=O)[C@H](CC(=O)O)NC(=O)CNC(=O)[C@H](CCCNC(=N)N)NC2=O)NC(=O)[C@@H](Cc2ccc(O)cc2)NC(=O)[C@H](CC(=O)O)NC(=O)CNC1=O (stereo partly shown) [scandium-44 labelled],,ex vivo γ-counting,"female athymic nude mice, U-87 MG xenograft, tumor","intravenous, 4 h, with: cRGD 50 mg/kg blocking",,tissue uptake,0.128 ± 0.02 %ID/g

# Some of these lines once more:
SMILES,tested on,test,test system,conditions,how to read,quantity,result
CC[C@H](C)[C@H](NC(=O)[C@H](CO)NC(=O)[C@H](Cc1ccc(O)cc1)NC(=O)[C@H](Cc1ccc(O)cc1)NC(=O)[C@H](CC(N)=O)NC(=O)CNC(=O)[C@H](CO)NC(=O)[C@H](Cc1ccc(O)cc1)NC(=O)[C@H](CO)NC(=O)[C@H](CO)NC(=O)[C@H](CC(N)=O)NC(=O)COCCOCCNC(=O)CN1CCN(CC(=O)O)CCN(CC(=O)O)CCN(CC(=O)O)CC1)C(=O)N[C@@H](CC(C)C)C(N)=O [copper-64 labelled],,dynamic PET,"tamoxifen-induced PDAC mouse model, pancreas","12.5 min, CLDN4-expressing tumours",,maximum pancreas uptake,17.6 %IA/cc
CC[C@H](C)[C@@H]([C@@H](CC(=O)N1CCC[C@H]1[C@H](OC)[C@@H](C)C(=O)N[C@H](C)[C@@H](O)c1ccccc1)OC)N(C)C(=O)[C@@H](NC(=O)[C@H](C(C)C)N(C)C(=O)OCc1ccc(NC(=O)[C@H](CCCNC(N)=O)NC(=O)[C@@H](NC(=O)CCCCCN2C(=O)CC(SC[C@H](NC(=O)[C@H](CC(=O)O)NC(=O)[C@H](Cc3ccc(O)cc3)NC(=O)[C@H](Cc3c[nH]c4ccccc34)NC(=O)[C@@H](N)CCCNC(=N)N)C(=O)O)C2=O)C(C)C)cc1)C(C)C (stereo partly shown),,,"C57BL/6 mouse, healthy, heart","intraperitoneal, 2.5 mg/kg, 1 h",,concentration,not detected
